# Measured values pooled from the literature.
# A part holds a random share of what one study measured. Changes are numbered by the printed parent chain.
# Chain of UniProt P23975 (whole entry, looked up): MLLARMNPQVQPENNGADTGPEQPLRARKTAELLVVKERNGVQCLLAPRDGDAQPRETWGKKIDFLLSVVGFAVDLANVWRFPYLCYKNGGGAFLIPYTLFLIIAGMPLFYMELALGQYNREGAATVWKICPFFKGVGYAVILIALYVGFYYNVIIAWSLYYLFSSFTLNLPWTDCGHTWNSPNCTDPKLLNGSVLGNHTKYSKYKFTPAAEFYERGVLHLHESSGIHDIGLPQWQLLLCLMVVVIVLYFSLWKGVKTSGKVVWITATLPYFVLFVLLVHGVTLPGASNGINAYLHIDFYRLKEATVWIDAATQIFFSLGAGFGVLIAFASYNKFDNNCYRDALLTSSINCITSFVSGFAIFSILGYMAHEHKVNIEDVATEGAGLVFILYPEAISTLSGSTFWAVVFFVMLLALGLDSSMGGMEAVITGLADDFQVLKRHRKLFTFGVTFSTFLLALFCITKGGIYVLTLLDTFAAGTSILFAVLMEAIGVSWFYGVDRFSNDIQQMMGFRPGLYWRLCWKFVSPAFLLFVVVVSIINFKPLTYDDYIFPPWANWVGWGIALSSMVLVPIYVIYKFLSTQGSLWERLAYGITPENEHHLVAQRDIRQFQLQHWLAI

# Sample 1 — target: ATF3, bZIP domain (human); method: DHFR protein complementation; medium: yeast; relative to: wild-type JUN-FOS pair; reading: higher = stronger binding
# Notes: single substitutions, most at no-binding floor
# Starting sequence: JUN, bZIP domain (human); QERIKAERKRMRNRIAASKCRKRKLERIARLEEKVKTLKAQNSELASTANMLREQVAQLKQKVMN; partner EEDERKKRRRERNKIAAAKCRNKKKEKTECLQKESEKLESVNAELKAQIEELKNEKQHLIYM
Substitution,binding fitness
L38C,-0.762 natural log
M51H,-0.296 natural log
T37H,0.0316 natural log
A57R,-0.171 natural log
A46L,-0.0713 natural log
E54C,-0.397 natural log
V56G,-1.25 natural log
K39H,-0.299 natural log

# Sample 2 — method: protein binding microarray; molecule type: double-stranded DNA, one strand shown; medium: in vitro; concentration: not given; relative to: not given; reading: higher = stronger binding
# Target: Histone acetyltransferase KAT6A, winged helix 1, GST fusion (KAT6A, Homo sapiens, UniProt Q92794, residues 1-85)
# Notes: 8-mer, flanks averaged, mean of 2 arrays, mostly near background
# Target sequence (chain): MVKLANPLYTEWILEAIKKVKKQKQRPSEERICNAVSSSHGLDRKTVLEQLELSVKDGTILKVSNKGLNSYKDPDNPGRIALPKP
Sequence,E-score
ACCCTGGC,-0.074
GTCGGCAC,0.236
CTGTCGAC,-0.0341
AACCGAAG,-0.0514
AACCGTGT,0.0115
CCCGCAAA,0.0886
ATATTTCC,-0.0315
CAAGTGGA,-0.196

# Sample 3 — read-out: peptide-MHC binding; molecule type: peptide; concentration: concentration not given
# Target: HLA class I histocompatibility antigen, A alpha chain, allele A*26:03 (Homo sapiens, UniProt P04439)
Molecule,binding
RVYKNYDPR,inactive
KRSTPFYTK,inactive
ARHGEYAPF,inactive
AADFPGIAR,inactive
AVYLLDGLR,inactive
NYFNRMFHF,inactive
TVIRFWHAM,active
KLYPNVDFY,inactive
REMGIVDLL,inactive
STFAASGPF,inactive
FENDIDEIL,inactive
DIKDTKEAL,inactive
HVFVCGNNM,inactive
IFLIITKVF,inactive
IISTNTLGK,inactive
SYLKPHIFE,inactive
SEFWLNYTA,inactive
RSLFNTVATLY,inactive

# Single results of other studies
Molecule,tested on,assay,system,setting,endpoint,value
"CDK2AP2 (Homo sapiens, UniProt O75956)","CHD4 (Homo sapiens, UniProt Q14839)",cross-linking MS,,hits only,interaction screen,cross-linked
C[C@H](c1ccnc(Nc2nc3ccc(-c4cc(N(C)C)ncn4)cc3[nH]2)c1)N1CCN(C(=O)CC(F)(F)F)CC1,"SLC6A2 (Homo sapiens, UniProt P23975)",ligand displacement,,10 µM,inhibition,-20%
"MPHOSPH10 (Homo sapiens, UniProt O00566)","NOP14 (Homo sapiens, UniProt P78316)",cross-linking MS,cell fractions,with: DMTMM,cross-linked residues,E419 to K26
"ARID2 (Homo sapiens, UniProt Q68CP9)","SMARCD2 (Homo sapiens, UniProt Q92925)",cross-linking MS,cell fractions,with: DSSO,cross-linked residues,K275 to K480
"SMC4 (Homo sapiens, UniProt Q9NTJ3)","AGTPBP1 (Homo sapiens, UniProt Q9UPW5)",cross-linking MS,cell fractions,with: DSSO,cross-linked residues,K363 to K1023

# Repeated from above (sample 3):
Molecule,binding
AVYLLDGLR,inactive
NYFNRMFHF,inactive
TVIRFWHAM,active
KLYPNVDFY,inactive
REMGIVDLL,inactive
